Measurements gathered from unrelated publications.
Each numbered part is a random draw from the data of one study; scales do not carry over between parts. Positions count from the first letter of the parent shown.

Set 1
Target: RNA binding protein fox-1 homolog 2, RRM domain, GST-SBP tag (RBFOX2, Homo sapiens, UniProt O43251-10, residues 100-194)
Technique: RNA Bind-n-Seq
Molecule type: RNA
Medium: in vitro
Concentration: 365 nM
Notes: natural RNA segment, single round, ends assumed
Baseline: no-protein control
Direction: higher = stronger binding
Endpoint: RBNS enrichment (R)
Shared flanks, not repeated: GGGAGUUCUACAGUCCGACGAUC … UGGAAUUCUCGGGUGCCAA
Target sequence (chain): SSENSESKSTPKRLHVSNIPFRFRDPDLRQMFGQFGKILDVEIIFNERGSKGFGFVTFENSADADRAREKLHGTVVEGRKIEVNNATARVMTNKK
AUCAGGCGCAGAAAUGAGGAUUACUGUUUCUUCCAGAUUUUGUUAAGAAUGUGUUCAGAUAUUUGUGUUUUCUUUCCUCAAUUUCUUACCAUGUAAUGUAACAUCAAUUA: 0.519
UCUGGAUCUAGAAGGGACCAUAAGAGGAGUAGGCCCUGGUUCCUGCUGUCCUGGUGGCUGGGCCCAGCAGGGGCCCUCACUCUUGAAGUCCAGGACUGGGUCUGACCUGG: 0.279
CCCUGCCUCAAAAAAACAAGCAAAGCCGGGCGUGGUGGCGCACGCCUUUAAUCCCAGCACUUGGGAGGCAGAGGCAGGCGGAUUUCUGAGUUCCAGGCCAGCCUGGUCUA: 0.314
GAGCACUGCCCCGCCGCCAAAGUCUGCAGAAUGUGAGAUGAGGUUCUCAAGGUCACAGGCCCCAGUCCCAGCCUGGGGGCUGGCAGAGGCCCCCAUAUACUCUGCUACAG: 0.389
UGCAAAUAGAUGGAAUUACAGCAAAAUGUGCUCAAUGUAUUUGCCUGCUUACAACACUGGGAGAUGUGUUUGCCAGUAAGUUGCUCAUCACAAGAGCACCAGACUUGGGG: 0.615
UGUGGUGGGUGGGGAUAAUUUUUGUGCAGUCUUUUUUAGUGACCAAACUUUAAUUUUGAAGAAGAAUAUAUUGACUUACUAAGGGGAAGUAUUCUCAUUUUGAGUGACAU: 0.787
GCUCAGAGAUACUGAUAUGGAUGUGGGAGGGCUCUAAAGUUAGAGGUCACCAACUCCACAGAUGAAACAGUUCAAUAAUGAGGAAACAGGUGAGCCCUGAAAACACAAAA: 0.436
CUCUCGGCCCAGCAAGAGAACAAUUCUUUCCGGGAUUGGCUGGCUCAGGUUGGGCGGGGCCGGUUCUAAACGCUCCAAGGGUCAACUCUGUUUCUUGCCUAGCAAACGAA: 0.219

Set 2
Target: ABI1, truncated, D143A, DHFR fusion (Arabidopsis thaliana)
Technique: DHFR PCA, deep sequencing
Medium: yeast
Notes: methotrexate growth selection, single substitutions
Together with: (+)-ABA 4.8 µM
Baseline: wild-type fitted maximum
Direction: higher = stronger binding
Endpoint: relative binding score
Starting sequence: PYL1, truncated, DHFR fusion (Arabidopsis thaliana); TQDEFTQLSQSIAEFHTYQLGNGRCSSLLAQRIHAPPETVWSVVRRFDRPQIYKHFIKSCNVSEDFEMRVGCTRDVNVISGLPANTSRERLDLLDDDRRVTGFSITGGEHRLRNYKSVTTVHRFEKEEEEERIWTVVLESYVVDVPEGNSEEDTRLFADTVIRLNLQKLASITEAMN
W41K: -4.93%
V142L: 24.7%
D159S: 26.6%
V100D: -8.6%
N85Y: 68.2%
L112K: -2.52%
Y53N: -13.1%
I105F: -4.61%
Y53G: -0.901%
T135Q: -12.8%
L29A: 5.47%
T39Y: 52.1%
R88D: 8.25%
Q19F: 43%

Set 3
Target: Histone acetyltransferase KAT6A, winged helix 1, GST fusion (KAT6A, Homo sapiens, UniProt Q92794, residues 1-85)
Technique: protein binding microarray
Molecule type: double-stranded DNA, one strand shown
Medium: in vitro
Concentration: not given
Notes: 8-mer, flanks averaged, mean of 2 arrays, mostly near background
Baseline: not given
Direction: higher = stronger binding
Endpoint: E-score
Target sequence (chain): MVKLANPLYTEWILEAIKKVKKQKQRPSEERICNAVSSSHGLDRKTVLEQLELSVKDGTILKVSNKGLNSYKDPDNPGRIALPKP
AACATCCC: -0.0503
GGTAGTCA: 0.0165
CCGCAAGG: 0.188
CCATGAAC: -0.151
AATAGCCC: 0.0485
AACATACG: 0.176
GAAGCTAC: -0.0561
AATCGACC: 0.00592
AGAGCTGC: 0.0486
ACAGCGGT: 0.21
CGGAGGGA: -0.0305
ACTATAAC: -0.155
CCGATGAC: 0.134
ATCCGTAG: 0.0952
ACTACCGA: 0.0297
CTCCCCTA: -0.1
CGTAGCAC: 0.102
TAGTTTAA: -0.017
AGAATTCC: -0.118
CATCTCAA: -0.213
GGCCAGCC: -0.121
CGATTTGA: -0.157
GAACATCA: -0.097
AACCGTCA: 0.029
ACCGGAAC: 0.14

Set 4
Target: CCNF, cyclin fold, Cln2 fusion (human)
Technique: yeast growth competition, sequencing
Medium: yeast
Notes: weak parent motif
Baseline: not given
Direction: higher = stronger binding
Endpoint: normalised enrichment score
Starting sequence: MASTL docking peptide (human); PMIAKNLMCELDE
PMIAKNLMCEDDE [L11D]: -0.627
PMGAKNLMCELDE [I3G]: 0.193
PMIAKNLPCELDE [M8P]: -0.304
PIIAKNLMCELDE [M2I]: 0.0809
PMIAKPLMCELDE [N6P]: -0.512
PMIAKNLMCEMDE [L11M]: -0.382
PMIAKNQMCELDE [L7Q]: 0.231
PMIAKNLMCEVDE [L11V]: -0.0885
PMIAKNMMCELDE [L7M]: -0.442
PMIAKNLMCELCE [D12C]: 0.249
PMIAKNLMCELYE [D12Y]: -0.0175
PMIAKNLMCELTE [D12T]: 0.42
PMIAKDLMCELDE [N6D]: -0.315
PMIASNLMCELDE [K5S]: -0.523
PMIAKNLMCDLDE [E10D]: -0.0616
PMIAKGLMCELDE [N6G]: -0.73
PMIAKSLMCELDE [N6S]: -0.0246
PMIAKNLMGELDE [C9G]: -0.267
PMIAKNLMDELDE [C9D]: -0.117
PMIAKNLMCELSE [D12S]: 0.197
PMIAKNLMCELWE [D12W]: 0.185
PMIAKNLMCELRE [D12R]: 0.106
PMIATNLMCELDE [K5T]: -0.4
PMIAKNLMCILDE [E10I]: 0.325
PMIAKNLMSELDE [C9S]: -0.0653

Set 5
Target: Sal-like protein 4, full length isoform B (SALL4, Homo sapiens, UniProt Q9UJQ4-2, residues 1-616)
Technique: universal PBM
Molecule type: double-stranded DNA, one strand shown
Medium: in vitro
Concentration: not given
Notes: 8-mer, flanks averaged, mean of replicates
Direction: higher = stronger binding
Endpoint: E-score
Target sequence (chain): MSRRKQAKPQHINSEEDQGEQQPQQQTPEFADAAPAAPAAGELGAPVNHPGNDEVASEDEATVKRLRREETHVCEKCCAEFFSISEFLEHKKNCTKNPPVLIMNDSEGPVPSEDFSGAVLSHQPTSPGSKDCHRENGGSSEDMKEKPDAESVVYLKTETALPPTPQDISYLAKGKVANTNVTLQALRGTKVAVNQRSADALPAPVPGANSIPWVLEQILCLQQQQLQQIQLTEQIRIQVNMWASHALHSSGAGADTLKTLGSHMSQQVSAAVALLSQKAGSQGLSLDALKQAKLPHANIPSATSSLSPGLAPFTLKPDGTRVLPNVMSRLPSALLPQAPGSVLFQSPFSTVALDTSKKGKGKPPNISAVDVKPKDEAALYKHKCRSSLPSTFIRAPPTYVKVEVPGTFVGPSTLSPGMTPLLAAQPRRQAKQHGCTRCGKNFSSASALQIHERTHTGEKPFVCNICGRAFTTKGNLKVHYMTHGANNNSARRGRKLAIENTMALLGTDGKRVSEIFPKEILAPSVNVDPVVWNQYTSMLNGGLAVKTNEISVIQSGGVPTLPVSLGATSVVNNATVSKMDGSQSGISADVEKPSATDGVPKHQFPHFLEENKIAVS
ACTCGAGG: -0.101
ATGCGGTC: -0.00043
CGAGCAAA: -0.162
AACAGCAT: 0.106
GCGTTTAA: 0.177
CTGGGGAC: -0.345
ACACGGCC: -0.204
GTGTCCAA: -0.0566
ACTGGAAG: -0.146
CTTTCAAC: 0.00543
CCCTGTGC: -0.279
ACAGATGA: 0.109
AAGTCATA: 0.3
ACACGTGG: -0.0638
GGTCCCCA: -0.386
CCCGCACC: -0.336
GCACGACA: -0.245
GGCACCAC: -0.361

Mixed results
PhoQ, residues 284 288 289 292 302 303 NLCILV  fold induction (PhoP, residues 12 14 15 18 19 NQFFI (Escherichia coli, UniProt P23836); Sort-seq, item: YFP reporter; E. coli; PhoQ-PhoP variant library, together with: 10 µM Mg2+; baseline: high Mg2+ state, higher = stronger signaling): 12.1
